# Assay results of several laboratories.
# Numbered parts are unrelated; each lists some results of a single study.

# Study 1
# Target: Interferon regulatory factor 5, full length, phosphomimetic (IRF5, Homo sapiens, UniProt Q13568-2, residues 1-514, S451D/S453D/S456D/S462D)
# Method: protein-binding microarray
# Molecule type: double-stranded DNA, one strand shown
# Medium: in vitro
# Concentration: 940 nM top
# Setting: 60-bp whole probe
# Added: salmon DNA 0.4 mg/ml
# Baseline: random background probes
# Direction: higher = stronger binding
# Constant ends, left off below: GCCTAGCAC … GTCTTGATTCGCTTGACGCTGCTG
Strand,fitted relative affinity
GACTGTTTCGGTTCCGGGACGTGCTAG,7.03 z-score
CTAGGTTTCCTTTCCCTTTAGTGCTAG,1.82 z-score
TCAACTTCTCTTTTTGCACTGTGCTAG,1.22 z-score
ACCATTTTGGTTTTCTCTATGTGCTAG,1.53 z-score
GACGGTTTCGGATTCGGGACGTGCTAG,7.03 z-score
CTCCCTTTCAGTTTTCCTATGTGCTAG,2.16 z-score
GACGATATCAGACTGGACACGTGCTAG,-0.305 z-score
TTAGGGCTCGGTCTCGGTTAGTGCTAG,1.79 z-score
TGAGGACTGGGACTGGGTTAGTGCTAG,-0.656 z-score
GACGGTTTCGGACTGCGGACGTGCTAG,6.49 z-score
GACGGTTTCGATATCGGGACGTGCTAG,12 z-score
TTAGGTTTCGGCTTTCGGTTAGTGCTA,9.66 z-score
GACGGTTTCGATTTCGGGACGTGCTAG,10.5 z-score
TTTTTTTTGTATTTTTGATAGTGCTAG,1.33 z-score
TTAGGTATCGCGTTTCGGTTAGTGCTA,3.62 z-score
TAAGGTATCGGGTATCGGTTAGTGCTA,6.04 z-score

# Study 2
# Target: Histone acetyltransferase KAT6A, both winged helices, GST fusion (KAT6A, Homo sapiens, UniProt Q92794, residues 1-181)
# Method: protein binding microarray
# Molecule type: double-stranded DNA, one strand shown
# Medium: in vitro
# Concentration: not given
# Setting: 8-mer, flanks averaged, mean of 2 arrays, mostly near background
# Baseline: not given
# Direction: higher = stronger binding
# Residues (chain): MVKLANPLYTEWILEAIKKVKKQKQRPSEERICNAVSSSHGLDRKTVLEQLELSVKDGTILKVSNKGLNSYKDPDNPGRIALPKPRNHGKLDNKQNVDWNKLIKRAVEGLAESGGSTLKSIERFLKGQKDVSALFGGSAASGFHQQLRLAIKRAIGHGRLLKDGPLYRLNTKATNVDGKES
Strand,E-score
ATTTTGGC,0.0479
ATATGAAT,-0.0684
AATTACGT,-0.127
ATCCCAGC,-0.228
AGACCAGG,-0.114
GCTCAAAC,0.106
TCATTAAA,0.0607
GCCCAGGC,-0.131
CCTAATTC,-0.201
ACTGCGAC,0.14
GACGCTGC,0.135
ACACGTTA,-0.178
AAATGGAG,-0.131
ACGCTAGC,0.153
TGATTACA,-0.112
GGCTTTGA,-0.0385
ACGAACTC,0.0868
AGAACACG,0.0199
CAGCCACC,-0.0757
CTTGAGCA,-0.119
AAAGGATA,-0.0729
CAGAAATC,-0.159
ACAACTGC,0.0393
AAACGACC,0.0227
AATAACTC,-0.137

# Study 3
# Target: RING finger protein unkempt homolog, zinc fingers 1-6, GST-SBP tag (UNK, Homo sapiens, UniProt Q9C0B0, residues 30-357)
# Method: RNA Bind-n-Seq
# Molecule type: RNA
# Medium: in vitro
# Concentration: not given
# Setting: RNA with constant flanks, human-mouse chimeric sites, ends assumed
# Baseline: input RNA pool
# Direction: higher = stronger binding
# Target sequence (chain): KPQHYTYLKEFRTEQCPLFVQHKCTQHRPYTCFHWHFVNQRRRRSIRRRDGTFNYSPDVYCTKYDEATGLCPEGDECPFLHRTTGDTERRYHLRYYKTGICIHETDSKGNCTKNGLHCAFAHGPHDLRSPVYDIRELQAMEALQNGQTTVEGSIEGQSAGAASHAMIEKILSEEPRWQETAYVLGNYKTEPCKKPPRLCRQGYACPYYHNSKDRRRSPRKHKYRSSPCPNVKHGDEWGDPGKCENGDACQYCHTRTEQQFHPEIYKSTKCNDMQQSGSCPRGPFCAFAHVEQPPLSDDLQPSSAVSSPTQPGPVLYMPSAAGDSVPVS
Strand,bound/input enrichment [ratio]
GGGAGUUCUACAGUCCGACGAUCACACAAUAUGAGACCAACAGCUUGGACUUCAAAGUUGGGGCGGAUGGGACAGUCUUCGCCACCCGGGAGCUGCAGGUCCCCUCCGAGCAGGUGGCGUUCACGGUGACUGCAUGGGACAGCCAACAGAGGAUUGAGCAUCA,0.386
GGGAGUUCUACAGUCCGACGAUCAACAGAUUGUCUUUAAGCAUUCCAAGCAAUGCUUGGGGGGUGAUCAUUGUUGCCCAUGUGCCUUCUGACUGAGCUUUUAAUUAAUUGCAUGUUACAUCUUUCCUUCACUCCAGAAUUGUUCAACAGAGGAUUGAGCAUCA,0.25
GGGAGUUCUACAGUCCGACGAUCAUUGUUGAAGCGAAUCCACUUUUAGAAGCCUUUGGAAAUGCAAAGACUGUUCGCAACAAUAAUAGCAGUCGAUUUGGAAAAUUUGUAGAAAUUCAUUUCAAUGAAAAGAGCUCAGUUGUUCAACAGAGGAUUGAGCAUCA,0.166
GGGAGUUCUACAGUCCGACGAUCUGUAGUUUCUUGAUUUAUCAUUUUUCUUGCUCGGGUUUUUCCUUUAGGAAAAGCCUAAAGAUUAGGUUGUAAGAAAAGAAAAUAGAAUGUUUCGAAGACCUGUGUUACAGGUAUUUCGUCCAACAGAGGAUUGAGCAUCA,1.14
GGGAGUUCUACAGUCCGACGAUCCUGUGACCACAAGAUCCUACCUGAGUGGCAGCUGAAGUUGACUCCCUCCCCUUCCCUGAACCCCCCCCCACUGCCCCUUGAGUCCACAGUGUCGGCUGAGAUGUUGCCUCUGCACGGUUCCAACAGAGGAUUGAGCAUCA,0.962
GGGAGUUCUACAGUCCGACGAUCAACAUUUUGUCAAAUUGUUAUGUUCCUGUGAAACAAGUGAACACUCUGAUACACUUCAUCUGCUUGUACAUCUGUAUGAUAGAGAAAUGUAAAUAUGUUAAUCCAAGCAAUGUGUCACUUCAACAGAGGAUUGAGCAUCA,0.254
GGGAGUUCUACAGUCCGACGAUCAGAUUCCCCCUCCUGAGGCCUUCUCCAAAGUUGGAGUCUCUUACAGAUGCCUCAUCCCCUGUUAGUAUUUUAGUUUGGACCACCCAGCCUUGGACAAUUCCCGCCAACCAGGCAAUUUGCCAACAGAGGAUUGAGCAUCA,3.73
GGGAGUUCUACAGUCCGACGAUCGAGCGUCUUGCCCGCACCGGGAUCAUAGUGACCACUAGUGAGGCUGUUCUGCUUCAGCUGGUGGCUGACAAAGACCACCCGAAGUUCAAGGAAAUUCAGAACCUAAUUAAGGCGAGUGCCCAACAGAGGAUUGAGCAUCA,0.0982
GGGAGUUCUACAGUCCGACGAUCUUUGUUUUUAUGCUAAGCACACGUGCUGGUGGUCUGGGCAUCAAUCUUGCAACUGCUGAUGUAGUCAUUUUAUAUGACUCAGAUUGGAAUCCCCAAGUUGAUCUUCAGGCUAUGGACCGUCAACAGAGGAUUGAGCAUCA,0.149
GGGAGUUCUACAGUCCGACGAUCGAUGAUAAUCACACAAAUGUGGCACUUUUACAUGACCAGCCUUGGGAUUCUUCUCCUGAUUAAUAUUCUCCCUGGAACCACUGGUCAAGGGGAAUCAAGACGACAAGAACCCGGGGACUUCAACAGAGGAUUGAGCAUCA,0.0964
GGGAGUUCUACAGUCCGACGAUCUACUCAACUUUCUUGCCACAUUUUGAAUUCCAAGACAUUAUUCCUCCAGAUGACUUUCUAACGAGUGAUGAAGAGCAAGAUUCCGUUUUAUUUGGAACUAUGAGAGGACAAGUUGUUGGACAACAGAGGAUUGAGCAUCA,0.211

# Study 4
# Target: Fragile X messenger ribonucleoprotein 1, C-terminal low-complexity region (Fmr1, Mus musculus, UniProt P35922)
# Method: RNA Bind-n-Seq
# Molecule type: RNA
# Medium: in vitro
# Concentration: 200 nM
# Setting: whole 134-nt RNA, ends assumed
# Added: 150 mM KCl
# Baseline: input library
# Direction: higher = stronger binding
Strand,log2 enrichment
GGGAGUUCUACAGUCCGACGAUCCUGUGCUACACAUCGUAUGUACCGAAUCGGGCCCCCCCGGGGCCCCCCCGGGCCCCCCCGGGAAAGUAUUAUGUUACGCCGUUCGGAUCUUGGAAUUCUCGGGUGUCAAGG,-1.23
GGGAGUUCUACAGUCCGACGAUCGUCCUGUGCUACACAUCGUAUGUACCGAAUCGUGUGUGUGUGUGUGUGUGUGUGUGUGAAAGUAUUAUGUUACGCCGUUCGGAUCUGCACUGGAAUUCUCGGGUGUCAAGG,0.673
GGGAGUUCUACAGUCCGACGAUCUCCUGUGCUACACAUCGUAUGUACCGAAUCGGGGUUUUUGGGUUUUUGGGGUUUUUGGGGAAAGUAUUAUGUUACGCCGUUCGGAUCUGCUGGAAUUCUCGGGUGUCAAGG,0.466
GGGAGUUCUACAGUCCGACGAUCCCUCAAGUCCUGUGCUACACAUCGUAUGUACCGAAUCGGUGGGGUGGGUGGGAAAGUAUUAUGUUACGCCGUUCGGAUCUGCACUUCCAGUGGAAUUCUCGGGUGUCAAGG,1.29
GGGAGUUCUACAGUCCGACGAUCACCAUGCAGGUGGGCAUCUUUGGGAAGCGGGGCAAGGGGGGGAUAGGGAGGGGGGUAACACUUUGGGAACAGGUGGUCCCAGGUCGUUUCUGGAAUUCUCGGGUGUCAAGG,0.942
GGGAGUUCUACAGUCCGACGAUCACCAUGCAAGUGGGCAUCUUUGGGAAGUGGGGCAAGGGGGGGAUAGGGAGGGGGGUAACACUUUGGGAACAGGUGGUCCCAGGUCGUUUCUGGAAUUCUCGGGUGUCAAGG,0.735
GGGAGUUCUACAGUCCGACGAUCUGUGCUACACAUCGUAUGUACCGAAUCGGGGAAAAAAAGGGGAAAAAAAGGGAAAAAAAGGGGAAAGUAUUAUGUUACGCCGUUCGGAUCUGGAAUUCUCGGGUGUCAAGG,-0.0827
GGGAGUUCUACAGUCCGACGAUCCACAGACAACACGCACCCACACAGACACAGAGGGAAGGGGUGGGGAUGGGGACAGGGUGCACAGCAGGGCGGGGUAGGACCCCAGCCCCUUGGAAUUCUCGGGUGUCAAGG,1.21
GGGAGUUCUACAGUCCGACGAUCCAAGUCCUGUGCUACACAUCGUAUGUACCGAAUCGGGAGGGAAAAAAAGGGUGGGAAAGUAUUAUGUUACGCCGUUCGGAUCUGCACUUCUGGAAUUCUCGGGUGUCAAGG,0.683
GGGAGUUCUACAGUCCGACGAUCUAACUUUAGAGGAGAAUCUGAUGGAUAUGGCAGUGGACGUGGAUUUGGGGAUGGCUAUAAUGGGUAUGGAGGAGGACCUGGAGGUGGCAAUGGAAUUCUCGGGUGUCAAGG,0.317
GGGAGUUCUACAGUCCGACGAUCUGGGAGGUGGAUUUUGUUUAUUUUUUUAGCUCAUUUCCAGGGGUGGGAAUUUUUUUUUAAUAUGUGUCAUGAAUGAAGUUGUUUUUGAAAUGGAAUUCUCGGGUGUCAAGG,0.237
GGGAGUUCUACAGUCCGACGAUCGCAGGAAGUAAAAACAAAUGGAAAUGCUUCGGAUAGUGGCAGGGGUGGGGGUUGCUAAUGAAAGGGUGGGAUGGGAGUGGGUAAAGAGUUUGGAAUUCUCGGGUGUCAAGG,0.00591
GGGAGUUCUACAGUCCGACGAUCCUGUGCUACACAUCGUAUGUACCGAAUCGGGGAAAGGGGUUUUUUUGGGGAAAAAAAGGGGAAAGUAUUAUGUUACGCCGUUCGGAUCUGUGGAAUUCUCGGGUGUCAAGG,-0.226
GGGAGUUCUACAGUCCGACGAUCAGUCCUGUGCUACACAUCGUAUGUACCGAAUCGGGUGGGAAAAAAAGGGUUUUUGGGAAAGUAUUAUGUUACGCCGUUCGGAUCUGCACUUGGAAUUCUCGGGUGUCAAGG,0.398

# Some of these lines once more (study 3):
Strand,bound/input enrichment [ratio]
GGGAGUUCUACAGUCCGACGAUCAACAGAUUGUCUUUAAGCAUUCCAAGCAAUGCUUGGGGGGUGAUCAUUGUUGCCCAUGUGCCUUCUGACUGAGCUUUUAAUUAAUUGCAUGUUACAUCUUUCCUUCACUCCAGAAUUGUUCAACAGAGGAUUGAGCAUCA,0.25
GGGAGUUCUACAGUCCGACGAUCUGUAGUUUCUUGAUUUAUCAUUUUUCUUGCUCGGGUUUUUCCUUUAGGAAAAGCCUAAAGAUUAGGUUGUAAGAAAAGAAAAUAGAAUGUUUCGAAGACCUGUGUUACAGGUAUUUCGUCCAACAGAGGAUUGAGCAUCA,1.14
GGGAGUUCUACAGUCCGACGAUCAUUGUUGAAGCGAAUCCACUUUUAGAAGCCUUUGGAAAUGCAAAGACUGUUCGCAACAAUAAUAGCAGUCGAUUUGGAAAAUUUGUAGAAAUUCAUUUCAAUGAAAAGAGCUCAGUUGUUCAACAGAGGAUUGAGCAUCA,0.166
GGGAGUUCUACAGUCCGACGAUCGAUGAUAAUCACACAAAUGUGGCACUUUUACAUGACCAGCCUUGGGAUUCUUCUCCUGAUUAAUAUUCUCCCUGGAACCACUGGUCAAGGGGAAUCAAGACGACAAGAACCCGGGGACUUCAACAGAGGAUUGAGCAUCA,0.0964
